Results pooled from the literature.
Protocols differ between the studies behind these lines. “And” joins repeats or separate records; there may be more than shown.
Target: Serine/threonine-protein kinase D3 (PRKD3, Homo sapiens, UniProt O94806)
One construct used (O94806 1-890): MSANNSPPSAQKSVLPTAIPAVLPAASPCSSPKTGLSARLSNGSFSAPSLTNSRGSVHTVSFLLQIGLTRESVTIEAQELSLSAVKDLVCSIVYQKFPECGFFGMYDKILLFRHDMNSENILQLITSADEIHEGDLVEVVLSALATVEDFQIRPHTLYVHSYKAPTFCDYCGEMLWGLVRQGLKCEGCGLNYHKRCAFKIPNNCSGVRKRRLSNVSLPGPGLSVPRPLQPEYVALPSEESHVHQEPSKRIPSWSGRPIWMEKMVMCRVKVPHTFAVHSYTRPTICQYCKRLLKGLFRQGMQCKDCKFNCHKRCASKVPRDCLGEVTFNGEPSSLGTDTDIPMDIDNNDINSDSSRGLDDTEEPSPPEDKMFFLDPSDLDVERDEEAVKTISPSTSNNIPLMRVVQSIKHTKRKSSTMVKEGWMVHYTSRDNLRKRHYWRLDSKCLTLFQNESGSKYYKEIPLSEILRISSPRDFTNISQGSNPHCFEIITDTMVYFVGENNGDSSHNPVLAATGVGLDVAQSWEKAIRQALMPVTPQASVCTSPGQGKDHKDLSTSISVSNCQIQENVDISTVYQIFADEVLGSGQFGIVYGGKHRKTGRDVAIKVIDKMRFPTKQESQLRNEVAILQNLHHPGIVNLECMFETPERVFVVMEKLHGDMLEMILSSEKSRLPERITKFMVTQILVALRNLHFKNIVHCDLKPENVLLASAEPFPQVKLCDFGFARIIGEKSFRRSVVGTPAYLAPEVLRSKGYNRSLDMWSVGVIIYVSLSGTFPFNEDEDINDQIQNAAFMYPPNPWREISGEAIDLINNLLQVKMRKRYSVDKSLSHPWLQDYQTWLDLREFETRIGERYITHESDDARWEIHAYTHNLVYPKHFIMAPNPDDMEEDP

assay	test system	setting	how to read	measurement	result	Structure (SMILES)
kinase activity, inhibitor, ProQinase kinase profiling	–	25 µM	baseline: control	remaining activity	97% and 94%	COCC12C(=O)NC3C4(C(OC)CC1O)C1CC5(O)C(OC)C(O)C(OC(C)=O)(C1C5OC(=O)c1ccccc1)C3(O)C(OC)C24 (centres unmarked)
enzyme activity, inhibitor	–	1 µM	–	activity vs control	104%	CNC(=O)C[C@H](Cc1ccc(C#N)cc1)NC(=O)c1cc(-c2ccc(CN[C@H](C)c3ccc(C)cc3)o2)ccc1Cl
kinobead competition pulldown	HEK293/HCT116 lysate mixture	10 µM, 1 h, 4 °C	lower = stronger competition	log2 LFQ intensity	23.1 and 22.8 and 22.3 and 21.5	N[C@H]1CC[C@H](Nc2nccc(-c3cccnc3Oc3ccc(NC(=O)NC4CC4)c4ccccc34)n2)CC1
enzyme activity	–	1 µM	baseline: DMSO control	remaining activity	79.3%	Nc1ncc(-c2cc(-c3cnn(CC(F)(F)F)c3)ncc2F)nc1C(=O)NC1CNCC(F)C1 (centres unmarked)
binding, competition with immobilised ligand	–	1 µM	–	remaining binding	63%	Nc1ncc2c(n1)-c1c([nH]c3ccc(C4=CCOCC4)cc13)CCC2
enzyme activity, inhibitor	–	10 µM	–	inhibition	-4%	Cc1cccc(O[C@H]2CCC[C@@H](C(C)CNCc3ccncc3)C2)c1 (relative stereo)
enzyme activity, inhibitor	–	0.1 µM	–	inhibition	11%	C=CC(=O)Nc1cccc(-c2cnc3[nH]cc(C(=O)NC(C)(C)C)c3n2)c1
binding, competition with immobilised ligand	–	1 µM	–	remaining binding	100%	COc1cc(Nc2nccc(-c3cnn4nc(OC)ccc34)n2)cc(C(F)(F)F)c1
binding	–	0.1 µM	–	remaining binding	85%	Cc1cnc2nc1Nc1cccc(c1)COC/C=C/COCc1cc(ccc1OCCN1CCOCC1)N2
kinase activity	–	0.1 µM, added: ATP at Km	–	inhibition	-2.6%	CCn1cc(C(=O)O)c(=O)c2c(N)c(F)c(NC3CCCCC3)cc21
inhibitor, KiNativ profiling	biochemical	2 µM	–	inhibition	8.2%	C=CC(=O)Nc1cc(-c2nn(C3CCN(CCNC(=O)[C@H](C)CCC45CC6CC(CC(C6)C4)C5)CC3)c3ncnc(N)c23)ccc1Oc1ccccc1
cell-free assay, competition with immobilised ligand	–	10 µM	–	remaining binding	91%	CC(C)=CC1OC(C)(C)C2C=C3C(=O)C(Cl)=CC(O)C3C3C(O)C4OC4C(=O)C132 (centres unmarked)
enzyme activity, inhibitor	–	0.1 µM	–	inhibition	11%	CN1CCN(Cc2ccc(-c3ccc(CO[C@H]4CCC[C@@H]4NC(=O)c4cc(-c5cnn(C)c5)cnc4N)cc3)cc2)CC1
enzyme activity, inhibitor	–	10 µM	–	inhibition	28%	NC(=O)[C@@H](O)C[C@H]1CCc2sc3ncnc(O[C@H]4CC[C@H](N5CCOCC5)CC4)c3c21
